# Measured values from different studies.
Structure (SMILES),test,system,setting,measurement,result
[CH3][Ti+2][O]C(=O)c1ccc([S][Au][PH](c2ccccc2)(c2ccccc2)[c-]2cccc2)cc1.[Fe+2].c1cc[cH-]c1.c1cc[cH-]c1.c1cc[cH-]c1,,solid in air and CDCl3,room temperature,stability time,≥ 5 days
O=c1oc2cc(O)ccc2c2cc(O)c(O)cc12,potentiometric titration,"water, extrapolated from methanol/water",25 °C,pKa2,9.1
CCCCCCCCCCCCC(=O)O.O=C1CCCC2C3CCCN4CCCC(CN12)C34 (centres unmarked),electrical conductivity,water,308.15 K,standard entropy of aggregation,109 J/(mol·K)
CC(C)C[C@H](NC(=O)[C@H](CCCCN)NC(=O)[C@H](CCC(=O)O)NC(=O)[C@H](C)NC(=O)[C@@H](NC(=O)[C@H](CCCCN)NC(=O)[C@H](CC(=O)O)NC(=O)[C@H](Cc1ccc(O)cc1)NC(=O)[C@H](Cc1ccccc1)NC(=O)[C@H](C)NC(=O)[C@H](CCCCN)NC(=O)[C@H](CC(C)C)NC(=O)[C@H](Cc1c[nH]c2ccccc12)NC(=O)[C@@H](N)CC(=O)O)C(C)C)C(=O)N[C@@H](CCCCN)C(=O)N[C@@H](CCC(=O)O)C(=O)N[C@@H](C)C(=O)N[C@@H](Cc1ccccc1)C(=O)N1CCC[C@H]1C(=O)N[C@@H](CC(=O)O)C(=O)N[C@@H](Cc1c[nH]c2ccccc12)C(=O)N[C@@H](C)C(=O)N[C@@H](CCCCN)C(=O)N[C@@H](C)C(=O)N[C@@H](C)C(=O)N[C@@H](Cc1ccc(O)cc1)C(=O)N[C@@H](CC(=O)O)C(=O)N[C@@H](CCCCN)C(=O)N[C@@H](C)C(=O)N[C@@H](C)C(=O)N[C@@H](CCC(=O)O)C(=O)N[C@@H](CCCCN)C(=O)N[C@@H](C)C(=O)N[C@@H](CCCCN)C(=O)N[C@@H](CCC(=O)O)C(=O)N[C@@H](C)C(=O)N[C@@H](C)C(=O)O,,"cynomolgus monkey male, plasma","intravenous infusion, 75 mg/kg, day 1, 30 min infusion",AUC(0-inf),8510 µg·h/mL
Cc1ccc(OCC(=O)N(Cc2cccs2)c2ccn[nH]2)cc1,,"Crl:CD(SD) rat, bred female","oral, 300 mg/kg/day, mean per litter, developmental toxicity",fetal weight,5.6 g
CC(C)[C@H](NC(=O)[C@H](Cc1ccccc1)NC(=O)[C@H](Cc1ccccc1)NC(=O)[C@H](CC(=O)O)NC(=O)[C@H](CC(=O)O)NC(=O)CNC(=O)[C@H](CCCCN)NC(=O)[C@H](CCCCN)NC(=O)[C@@H](N)Cc1c[nH]cn1)C(=O)N[C@@H](Cc1ccc(O)cc1)C(=O)N[C@@H](C)C(=O)N[C@@H](CC(=O)O)C(=O)N[C@@H](Cc1ccc(O)cc1)C(=O)O,cytotoxicity,human cells,2 (unit not given),CC50,> 100 µM
COc1cc(NC(=O)C(=O)c2c(C)n(Cc3ccc(Cl)cc3)c3ccc(C)cc23)ccn1,,"cynomolgus monkey, plasma","intravenous, 1 mg/kg",AUC,1900 ng·h/mL
CCCCCCCC(=O)N[C@@H](CCCCN)C(=O)N[C@H](C(=O)N[C@@H](C)C(=O)NCC(=O)N[C@@H](CCCCN)C(=O)N[C@H](C(=O)N[C@@H](C)C(=O)N[C@@H](CCCCN)C(=O)N[C@H](C(=O)N[C@@H](C)C(=O)NCC(=O)N[C@@H](CCCCN)C(=O)N[C@H](C(=O)N[C@@H](C)C(=O)N[C@@H](CCCCN)C(=O)N[C@H](C(=O)N[C@@H](C)C(=O)NCC(=O)N[C@@H](CCCCN)C(=O)N[C@H](C(=O)N[C@@H](C)C(N)=O)[C@@H](C)CC)[C@@H](C)CC)[C@@H](C)CC)[C@@H](C)CC)[C@@H](C)CC)[C@@H](C)CC,circular dichroism,POPE:TOCL vesicles,,melting temperature,~60 °C
Cn1cc(-c2cccc(CN3CCC4(CC3)COc3c4ccc4c3CN([C@H]3CCC(=O)NC3=O)C4=O)c2)cn1,,"mouse Crbn I391V, spleen","oral, 100 mg/kg, 6 h",tissue concentration,7180 ng/g
O=C1C(P(=O)(O)O)CCCN1O (centres unmarked),,nude mice,"intravenous, months, neutralized with NaOH",tolerated dose,150 mg/kg/day
COC(=O)C[C@](O)(CCCC(C)(C)OC(C)=O)C(=O)O[C@@H]1C(OC)=C[C@]23CCCN2CCc2cc4c(cc2[C@H]13)OCO4,,"CD1 mouse, large intestine","oral, 1 mg/kg, 2 h",tissue concentration,100 ng/mL

# Excerpt of the above:
Structure (SMILES),test,system,setting,measurement,result
CC(C)[C@H](NC(=O)[C@H](Cc1ccccc1)NC(=O)[C@H](Cc1ccccc1)NC(=O)[C@H](CC(=O)O)NC(=O)[C@H](CC(=O)O)NC(=O)CNC(=O)[C@H](CCCCN)NC(=O)[C@H](CCCCN)NC(=O)[C@@H](N)Cc1c[nH]cn1)C(=O)N[C@@H](Cc1ccc(O)cc1)C(=O)N[C@@H](C)C(=O)N[C@@H](CC(=O)O)C(=O)N[C@@H](Cc1ccc(O)cc1)C(=O)O,cytotoxicity,human cells,2 (unit not given),CC50,> 100 µM
